# Experimental data collected from several papers.
# A part holds a random share of what one study measured. “And” joins repeats or separate records; there may be more than shown.
# Sequence of UniProt P9WI81 (whole entry, looked up): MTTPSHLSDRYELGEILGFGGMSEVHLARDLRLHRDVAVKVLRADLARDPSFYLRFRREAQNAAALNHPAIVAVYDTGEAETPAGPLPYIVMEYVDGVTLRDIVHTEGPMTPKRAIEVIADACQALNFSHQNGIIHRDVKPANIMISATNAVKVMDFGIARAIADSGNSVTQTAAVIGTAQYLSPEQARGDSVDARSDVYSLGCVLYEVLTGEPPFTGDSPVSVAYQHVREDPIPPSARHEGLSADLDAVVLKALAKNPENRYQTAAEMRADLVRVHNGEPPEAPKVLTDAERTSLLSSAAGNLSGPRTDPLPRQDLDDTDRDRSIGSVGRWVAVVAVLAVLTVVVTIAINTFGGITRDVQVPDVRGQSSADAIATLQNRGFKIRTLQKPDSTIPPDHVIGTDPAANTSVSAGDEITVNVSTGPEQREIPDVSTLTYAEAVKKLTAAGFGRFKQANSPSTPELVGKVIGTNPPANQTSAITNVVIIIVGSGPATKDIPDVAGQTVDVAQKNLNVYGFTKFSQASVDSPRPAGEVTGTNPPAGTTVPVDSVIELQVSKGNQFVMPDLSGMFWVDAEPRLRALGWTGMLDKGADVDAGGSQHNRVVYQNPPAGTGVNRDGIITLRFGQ
# Sequence of UniProt Q9H3N8 (whole entry, looked up): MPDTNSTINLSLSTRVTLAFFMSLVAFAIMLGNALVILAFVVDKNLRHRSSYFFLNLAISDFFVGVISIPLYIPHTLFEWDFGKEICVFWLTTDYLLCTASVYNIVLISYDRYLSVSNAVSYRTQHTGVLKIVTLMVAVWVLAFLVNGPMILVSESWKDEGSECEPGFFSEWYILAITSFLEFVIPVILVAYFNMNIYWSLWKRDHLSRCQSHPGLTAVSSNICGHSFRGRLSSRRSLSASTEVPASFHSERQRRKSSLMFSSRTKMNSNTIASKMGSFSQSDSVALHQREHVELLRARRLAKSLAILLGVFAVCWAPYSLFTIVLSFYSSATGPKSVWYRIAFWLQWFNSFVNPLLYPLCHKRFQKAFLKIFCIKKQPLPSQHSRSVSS

# Block 1
# Structure (SMILES): c1ccc(Oc2ccc(Nc3c4c(nc5ccccc35)CCC4)cc2)cc1
# Organism: Leishmania donovani
assay,test system,conditions,inhibition
parasite growth,"DD8 amphotericin B-resistant, promastigotes",1.66 µM,54% and 48% and 40% and 42% and 51% and 47%
parasite growth,"DD8 amphotericin B-resistant, intracellular amastigotes",20 µM,100%
parasite killing,"DD8, promastigotes","33.33 µM, 48 h",100%
parasite growth,"DD8 amphotericin B-resistant, intracellular amastigotes",0.08 µM,2% and 5%
parasite growth,,"8 nM, intracellular, amastigote",5%
parasite growth,,"3.33 µM, promastigote",23%

# Block 2
# Organism: Sarcocystis neurona
# Read-out: parasite growth
# Concentration: 10 µM
Compound,inhibition [%]
O=C(O)CCCc1ccc(N(CCCl)CCCl)cc1,6.3
c1ccc2c(c1)Nc1ccccc1S2,-39.8
CCC(COC(=O)c1cc(OC)c(OC)c(OC)c1)(c1ccccc1)N(C)C.O=C(O)/C=C\C(=O)O (centres unmarked),-35.2
CNC(=O)Oc1ccc2c(c1)[C@]1(C)CCN(C)[C@@H]1N2C.CNC(=O)Oc1ccc2c(c1)[C@]1(C)CCN(C)[C@@H]1N2C.O=S(=O)(O)O,-20.8
O=c1c2ccccc2[se]n1-c1ccccc1,-23.3
Br.COc1ccc2c(c1)[C@]13CCCC[C@@H]1[C@H](C2)N(C)CC3,-22.7
CN(C)C(=O)Oc1ccc[n+](C)c1.[Br-],2.2

# Block 3
# SMILES: CNC(=O)c1ccc(-c2cnn3ccc(C(=O)N(C)c4ccc(Cl)c(C(=O)OC)c4)cc23)cc1
# Organism: Cryptosporidium parvum
# Species: neonatal calves
# Dose: dose not given
assay,conditions,fecal oocyst count
qPCR,day 12 post-treatment,0 oocysts/g feces and 19 oocysts/g feces
,day 7 post-treatment,27 oocysts/g feces and 0 oocysts/g feces and 247 oocysts/g feces and 40 oocysts/g feces and 17 oocysts/g feces and 244 oocysts/g feces
qPCR,day 10 post-treatment,0 oocysts/g feces and 1 oocysts/g feces and 62 oocysts/g feces
qPCR,day 9 post-treatment,0 oocysts/g feces and 285 oocysts/g feces and 6 oocysts/g feces and 43 oocysts/g feces
,day 2 post-treatment,133000 oocysts/g feces and 1830 oocysts/g feces and 10200 oocysts/g feces and 61 oocysts/g feces and 97700 oocysts/g feces and 4360 oocysts/g feces and 573 oocysts/g feces
,day 3 post-treatment,1250 oocysts/g feces and 12600 oocysts/g feces and 4870 oocysts/g feces and 4860 oocysts/g feces and 4060 oocysts/g feces and 74 oocysts/g feces

# Mixed results
# CRK2: Cyclin-dependent kinase 2 homolog (CRK2, Plasmodium falciparum, UniProt P61075)
# Sequence of UniProt P61075 (whole entry, looked up): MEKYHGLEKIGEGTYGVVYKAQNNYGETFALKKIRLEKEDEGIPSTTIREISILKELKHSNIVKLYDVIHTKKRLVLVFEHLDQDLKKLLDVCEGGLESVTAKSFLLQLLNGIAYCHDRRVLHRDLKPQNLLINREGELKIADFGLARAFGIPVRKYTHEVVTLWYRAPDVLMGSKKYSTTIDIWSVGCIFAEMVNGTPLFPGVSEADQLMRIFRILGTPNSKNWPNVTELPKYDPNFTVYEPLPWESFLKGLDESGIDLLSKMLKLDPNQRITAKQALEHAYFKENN
Structure (SMILES),target,assay,conditions,endpoint,value
Cc1c(N2CCNCC2)nc2ccc(Br)cc2c1C(=O)NC[C@H](CCC(=O)O)c1ccccc1Cl,"HRH4 (Homo sapiens, UniProt Q9H3N8)",ligand displacement,10 µM,inhibition,-15.1%
Cc1c[nH]c2nccc(Oc3c(F)cc(Nc4cc(Cl)nc(N)n4)cc3F)c12,CRK2,"cell-free assay, competition with immobilised ligand",0.1 µM,remaining binding,72%
CSc1cccnc1N1CCN(Cc2nc3ccccc3[nH]2)CC1,CRK2,"cell-free assay, competition with immobilised ligand",1 µM,remaining binding,92%
c1ccc(N2CCN(Cc3nc4ccccc4[nH]3)CC2)nc1,"pknB (Mycobacterium tuberculosis, UniProt P9WI81)","cell-free assay, competition with immobilised ligand",1 µM,remaining binding,87%

# A few entries again (block 3):
assay,conditions,fecal oocyst count
,day 7 post-treatment,27 oocysts/g feces and 0 oocysts/g feces and 247 oocysts/g feces and 40 oocysts/g feces and 17 oocysts/g feces and 244 oocysts/g feces
qPCR,day 10 post-treatment,0 oocysts/g feces and 1 oocysts/g feces and 62 oocysts/g feces
qPCR,day 9 post-treatment,0 oocysts/g feces and 285 oocysts/g feces and 6 oocysts/g feces and 43 oocysts/g feces
